Results collected from several papers.
± marks the error that the study gave. Values after ≈ are worked out from the molar mass of the structure shown.

For `Clc1cc2c(cc1Cl)Oc1cc(Cl)c(Cl)cc1O2`, the internal concentration was 0.22 ppt (GC-HRMS; zebrafish embryos, whole embryo, dry weight; waterborne, 50 ppt, 24 hpf).
For `O=C(O)C(F)(OC(F)(F)C(F)(F)C(F)(F)F)C(F)(F)F` (stereo not drawn), the plasma concentration was 190 ng/mL (LC-MS; C57BL/6J mouse female, plasma; drinking water, 2 mg/L each PFAS, 12 weeks).
The intrinsic clearance of `CCCCCCCCCCCCCCCCCC[N+](C)(C)C` is reported as 0.042 mL/h/mg protein (substrate depletion; human liver microsomes; 0.5 µM, 0 to 3 h, 37 °C, together with: NADPH).
For `CC[C@H](C)[C@H](NC(=O)[C@@H](N)CCCNC(=N)N)C(=O)N[C@H](C(=O)N1CCC[C@H]1C(=O)N[C@@H](C)C(N)=O)C(C)C`, the AUC(0-t) was 388 ± 280 ng·h/mL (healthy volunteers, both sexes, plasma; intravenous infusion, 1.5 mg/kg daily, day 7, multiple ascending dose).
Under “time to fibril formation”, `[Met(O)35]Aβ40` is recorded as at most 96 h (electron microscopy; sodium phosphate buffer; 10 µM, pH 7.4, 25 °C, agitation 200 rpm).
With `O[C@H]1CCCN[C@@H]1CCCn1cnc2c(Cl)c(Cl)ccc21` the AUC(0-tau) was 329 ng·h/mL (healthy human volunteers, plasma; oral, 100 mg, day 1, multiple ascending dose).
Under “patients without hepatic or GI adverse events”, `CCCCCOc1ccc(-c2ccc(-c3ccc(C(=O)N[C@H]4C[C@@H](O)[C@@H](O)NC(=O)[C@@H]5[C@@H](O)[C@@H](C)CN5C(=O)[C@H]([C@@H](C)O)NC(=O)[C@H]([C@H](O)[C@@H](O)c5ccc(O)cc5)NC(=O)[C@@H]5C[C@@H](O)CN5C(=O)[C@H]([C@@H](C)O)NC4=O)cc3)cc2)cc1` is recorded as 78.8% (adult patients; iv, dose not given, 2, during treatment).
With `eremomycin` the LD50 was 1530 mg/kg (CBA mouse; intravenous, single bolus in 5% glucose).
For `CC(=O)N[C@H](CCCCNC(=O)C(C)F)C(=O)N[C@@H](CS)C(=O)N[C@@H](CS)C(=O)N[C@@H](CCC(=O)O)C(=O)N[C@@H](Cc1c[nH]cn1)C(=O)N[C@H](Cc1ccccc1)C(=O)N[C@@H](CCCNC(=N)N)C(=O)N[C@@H](Cc1c[nH]c2ccccc12)C(=O)N[C@@H](CS)C(=O)N[C@@H](CCCNC(=N)N)C(=O)N1CCC[C@H]1C(=O)N[C@H](C(N)=O)C(C)C` (stereo partly drawn) [fluorine-18 labelled], the liver uptake was 1.97 ± 0.17 %ID/g (C57BL/6 mice, B16-F10 tumour, liver; intravenous, 2 h).
`CC(C)C[C@@H]1NC(=O)[C@@H]2CSSC[C@@H](C(=O)NCC(N)=O)NC(=O)[C@H](Cc3ccccc3)NC(=O)CNC(=O)[C@H](CC(N)=O)NC(=O)[C@@H]3CCCN3C(=O)CNC(=O)[C@@H]3CSSC[C@H](NC(=O)[C@H](CO)NC(=O)[C@H]([C@@H](C)O)NC(=O)[C@@H]4CCCN4C(=O)[C@H](C)NC(=O)[C@H](Cc4c[nH]c5ccccc45)NC(=O)[C@H](CC(=O)O)NC(=O)CNC(=O)[C@H](CCCNC(=N)N)NC(=O)CNC(=O)[C@H](CCC(N)=O)NC(=O)[C@@H]4CCCN4C(=O)[C@@H](NC(=O)CNC(=O)c4ccc(F)cc4)CSSC[C@H](NC(=O)CNC(=O)[C@H](C)NC1=O)C(=O)N[C@@H](C(C)C)C(=O)N3)C(=O)N[C@@H](CO)C(=O)N[C@@H](CCC(N)=O)C(=O)N[C@@H](CC(=O)O)C(=O)N[C@@H](CO)C(=O)N[C@@H](CC(=O)O)C(=O)N2` [fluorine-18 labelled] has a tumour uptake of 2.6 ± 0.72 %ID/g (microPET imaging; nude mice, U-87 MG xenograft, tumour; intravenous, 4.44 MBq, 0.5 h).
The solubility of `CC1N=C(c2ccccc2F)c2cc(Nc3ccc(C(F)(F)F)cc3)ccc2NC1=O` (stereo not drawn) is reported as 1.44 µM (≈ 0.615 µg/mL) (shake flask; PBS; 24 h, pH 7.4).
Under “inhibition of carbonyl reduction”, `CC(C)C(=O)c1cn(CC(=O)COc2ccc(Oc3ccccc3)cc2)c2ccc(C(=O)O)cc12` is recorded as about 45% (porcine liver S9 fraction; 20 µM, 30 min, together with: BNPP 1 mM).

For quick reference, copied from above:
With `O[C@H]1CCCN[C@@H]1CCCn1cnc2c(Cl)c(Cl)ccc21` the AUC(0-tau) was 329 ng·h/mL (healthy human volunteers, plasma; oral, 100 mg, day 1, multiple ascending dose).
